Published values from different studies.
Numbered parts are unrelated; each lists some results of a single study. Changes are numbered by the printed parent chain.
Sequence of UniProt P29320 (whole entry, looked up): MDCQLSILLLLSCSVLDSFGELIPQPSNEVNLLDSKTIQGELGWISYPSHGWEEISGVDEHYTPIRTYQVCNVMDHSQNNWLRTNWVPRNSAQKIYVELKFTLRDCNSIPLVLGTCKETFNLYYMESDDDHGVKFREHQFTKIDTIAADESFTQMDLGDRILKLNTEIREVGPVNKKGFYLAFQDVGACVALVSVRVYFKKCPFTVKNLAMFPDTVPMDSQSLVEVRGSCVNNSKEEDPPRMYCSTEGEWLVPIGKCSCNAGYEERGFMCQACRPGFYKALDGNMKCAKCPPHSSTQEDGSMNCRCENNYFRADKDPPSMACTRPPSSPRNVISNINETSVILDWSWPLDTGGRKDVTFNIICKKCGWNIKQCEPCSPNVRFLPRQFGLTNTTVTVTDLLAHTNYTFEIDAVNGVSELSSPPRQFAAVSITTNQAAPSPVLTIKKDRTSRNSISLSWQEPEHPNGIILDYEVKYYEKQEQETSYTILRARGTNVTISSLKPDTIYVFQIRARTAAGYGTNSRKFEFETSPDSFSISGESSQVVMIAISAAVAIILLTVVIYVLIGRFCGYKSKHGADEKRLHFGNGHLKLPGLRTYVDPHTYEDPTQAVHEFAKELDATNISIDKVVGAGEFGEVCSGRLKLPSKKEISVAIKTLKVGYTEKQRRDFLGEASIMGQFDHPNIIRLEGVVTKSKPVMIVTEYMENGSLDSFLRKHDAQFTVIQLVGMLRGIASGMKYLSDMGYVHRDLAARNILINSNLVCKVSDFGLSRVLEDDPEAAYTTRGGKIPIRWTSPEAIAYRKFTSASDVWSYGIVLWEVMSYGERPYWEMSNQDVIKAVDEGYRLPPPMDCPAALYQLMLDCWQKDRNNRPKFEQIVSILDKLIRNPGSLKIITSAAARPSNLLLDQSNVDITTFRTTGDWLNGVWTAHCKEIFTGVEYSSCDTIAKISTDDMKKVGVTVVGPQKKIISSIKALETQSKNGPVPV
Sequence of UniProt P49841 (whole entry, looked up): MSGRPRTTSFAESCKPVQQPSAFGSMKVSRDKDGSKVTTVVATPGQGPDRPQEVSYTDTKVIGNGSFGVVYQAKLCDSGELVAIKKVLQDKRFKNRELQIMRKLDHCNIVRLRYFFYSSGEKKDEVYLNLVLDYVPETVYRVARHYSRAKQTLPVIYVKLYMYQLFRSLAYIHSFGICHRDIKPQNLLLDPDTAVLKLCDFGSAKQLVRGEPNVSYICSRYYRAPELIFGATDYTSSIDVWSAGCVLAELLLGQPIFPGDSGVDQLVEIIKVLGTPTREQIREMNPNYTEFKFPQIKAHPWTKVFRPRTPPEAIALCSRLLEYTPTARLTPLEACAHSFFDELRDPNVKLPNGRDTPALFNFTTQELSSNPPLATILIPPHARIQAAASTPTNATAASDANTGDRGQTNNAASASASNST
Sequence of UniProt P36896 (whole entry, looked up): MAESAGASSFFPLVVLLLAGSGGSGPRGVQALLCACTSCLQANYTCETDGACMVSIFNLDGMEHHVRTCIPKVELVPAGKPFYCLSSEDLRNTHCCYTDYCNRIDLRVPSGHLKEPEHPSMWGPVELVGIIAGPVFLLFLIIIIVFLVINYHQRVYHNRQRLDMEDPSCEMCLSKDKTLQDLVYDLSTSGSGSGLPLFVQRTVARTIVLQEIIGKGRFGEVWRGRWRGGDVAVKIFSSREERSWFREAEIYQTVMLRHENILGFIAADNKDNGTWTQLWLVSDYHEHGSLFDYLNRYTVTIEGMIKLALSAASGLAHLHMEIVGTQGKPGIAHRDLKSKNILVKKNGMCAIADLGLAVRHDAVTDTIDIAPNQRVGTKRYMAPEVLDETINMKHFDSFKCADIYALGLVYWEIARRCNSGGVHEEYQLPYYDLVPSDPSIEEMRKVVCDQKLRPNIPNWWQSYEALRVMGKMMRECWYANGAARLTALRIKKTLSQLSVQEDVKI
Sequence of UniProt Q56UN5 (whole entry, looked up): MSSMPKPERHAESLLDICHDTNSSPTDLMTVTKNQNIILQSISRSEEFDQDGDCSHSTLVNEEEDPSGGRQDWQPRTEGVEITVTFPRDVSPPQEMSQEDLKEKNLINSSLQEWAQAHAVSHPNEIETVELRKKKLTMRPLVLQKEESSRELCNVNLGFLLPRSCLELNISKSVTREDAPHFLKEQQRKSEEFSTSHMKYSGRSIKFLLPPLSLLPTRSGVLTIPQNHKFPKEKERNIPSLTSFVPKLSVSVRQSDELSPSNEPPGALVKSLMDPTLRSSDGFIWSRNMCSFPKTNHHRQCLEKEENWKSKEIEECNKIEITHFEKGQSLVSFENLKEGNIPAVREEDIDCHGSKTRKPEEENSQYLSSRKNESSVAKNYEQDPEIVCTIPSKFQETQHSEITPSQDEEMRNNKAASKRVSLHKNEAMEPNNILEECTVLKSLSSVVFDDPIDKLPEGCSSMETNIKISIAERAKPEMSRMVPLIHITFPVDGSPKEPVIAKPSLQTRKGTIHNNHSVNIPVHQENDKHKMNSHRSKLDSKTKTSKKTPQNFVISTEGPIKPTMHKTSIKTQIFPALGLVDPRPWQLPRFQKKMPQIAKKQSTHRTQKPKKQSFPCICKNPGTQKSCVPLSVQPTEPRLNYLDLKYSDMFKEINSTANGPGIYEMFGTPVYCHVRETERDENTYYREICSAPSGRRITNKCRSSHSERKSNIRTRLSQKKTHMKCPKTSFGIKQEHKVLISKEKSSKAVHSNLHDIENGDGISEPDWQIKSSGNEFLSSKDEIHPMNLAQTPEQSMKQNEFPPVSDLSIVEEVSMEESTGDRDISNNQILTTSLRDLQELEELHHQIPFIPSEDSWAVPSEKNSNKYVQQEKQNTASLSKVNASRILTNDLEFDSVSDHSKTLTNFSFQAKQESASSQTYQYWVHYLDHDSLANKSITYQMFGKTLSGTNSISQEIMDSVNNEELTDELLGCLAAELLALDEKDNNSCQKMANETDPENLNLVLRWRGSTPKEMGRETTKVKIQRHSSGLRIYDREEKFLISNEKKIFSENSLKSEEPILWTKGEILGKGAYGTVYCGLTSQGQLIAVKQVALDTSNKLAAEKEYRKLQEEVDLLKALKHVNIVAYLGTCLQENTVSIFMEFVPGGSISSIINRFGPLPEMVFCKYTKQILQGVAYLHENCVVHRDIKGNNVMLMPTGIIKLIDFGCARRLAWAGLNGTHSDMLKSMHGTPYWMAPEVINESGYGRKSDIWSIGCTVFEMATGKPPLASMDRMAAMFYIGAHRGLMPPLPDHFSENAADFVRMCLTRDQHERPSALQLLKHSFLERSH
Sequence of UniProt P49336 (whole entry, looked up): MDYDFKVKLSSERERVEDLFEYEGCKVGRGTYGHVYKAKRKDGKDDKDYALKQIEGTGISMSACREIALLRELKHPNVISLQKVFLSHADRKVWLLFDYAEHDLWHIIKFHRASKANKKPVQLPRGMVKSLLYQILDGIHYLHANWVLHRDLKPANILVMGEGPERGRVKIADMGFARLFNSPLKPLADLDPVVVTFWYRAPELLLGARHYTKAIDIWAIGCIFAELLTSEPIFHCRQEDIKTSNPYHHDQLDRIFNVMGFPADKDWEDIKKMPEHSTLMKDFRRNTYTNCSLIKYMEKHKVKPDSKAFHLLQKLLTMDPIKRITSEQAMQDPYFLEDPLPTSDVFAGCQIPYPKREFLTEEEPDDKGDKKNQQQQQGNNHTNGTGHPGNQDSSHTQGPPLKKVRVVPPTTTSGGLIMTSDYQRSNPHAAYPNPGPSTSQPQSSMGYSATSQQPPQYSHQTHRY

Series 1
Cell line: L929
Effect on: necroptosis protection
Method: CCK-8
Tested at: 0.078 µM
Together with: TNF-α plus zVAD
SMILES	viability
CC(C)S(=O)(=O)c1ccc2nccc(Nc3ccc4scnc4c3)c2c1	13%
CC(C)S(=O)(=O)c1ccc2nccc(Nc3ccc4sc(C5CCCC5)nc4c3)c2c1	26%
CC[C@@H](C)c1nc2cc(Nc3ccnc4ccc(S(=O)(=O)C(C)C)cc34)ccc2s1	16.6%

Series 2
Target: CCNF, cyclin fold, Cln2 fusion (human)
Method: yeast growth competition, sequencing
Matrix: yeast
Notes: strong parent motif
Baseline: not given
Direction: higher = stronger binding
Parent: viral docking peptide; YKVKRRLVFGADD
Substitution	normalised enrichment score
YKVKRRLVFGAED [D12E]	8.22
AKVKRRLVFGADD [Y1A]	9.34
YKVKRRLVKGADD [F9K]	0.765
YKYKRRLVFGADD [V3Y]	7.58
YRVKRRLVFGADD [K2R]	8.71
YKVKRRLVFGAWD [D12W]	9.03
YKVKRRGVFGADD [L7G]	0.383
YKVCRRLVFGADD [K4C]	8.72

Series 3
SMILES: COc1ccc2c(c1)/C(=C/c1cnc[nH]1)C(=O)N2
Effect on: enzyme activity
Mode: inhibitor
Tested at: 0.5 µM
Baseline: control
target	remaining activity [%]
EPHA3 (Homo sapiens, UniProt P29320)	93.3
GSK3B (Homo sapiens, UniProt P49841)	35.4
ACVR1B (Homo sapiens, UniProt P36896)	105

Series 4
Compound: Cn1cncc1[C@@](O)(COc1ccc(C#N)cc1-c1ccc(OC(F)(F)F)cc1)c1ccc(C#N)cc1
Effect on: cell-free assay
Method: competition with immobilised ligand
Tested at: 1 µM
target	remaining binding
CDK8 (Homo sapiens, UniProt P49336)	100%
MAP3K19 (Homo sapiens, UniProt Q56UN5)	100%
SRC (Homo sapiens, UniProt P12931)	100%
FLT3 (Homo sapiens, UniProt P36888)	100%

A few entries again (series 2):
Substitution	normalised enrichment score
YKYKRRLVFGADD [V3Y]	7.58
YRVKRRLVFGADD [K2R]	8.71
